Experimental data of several laboratories.
A part holds a random share of what one study measured. Changes are numbered by the printed parent chain.

Study 1 — target: CCNB3, cyclin fold, Cln2 fusion (human); method: yeast growth competition, sequencing; sample: yeast; notes: weak parent motif; relative to: not given; direction: higher = stronger binding; quantity: normalised enrichment score
Starting sequence: CDKN1A docking peptide (human); SKACRRLFGPVDS; partner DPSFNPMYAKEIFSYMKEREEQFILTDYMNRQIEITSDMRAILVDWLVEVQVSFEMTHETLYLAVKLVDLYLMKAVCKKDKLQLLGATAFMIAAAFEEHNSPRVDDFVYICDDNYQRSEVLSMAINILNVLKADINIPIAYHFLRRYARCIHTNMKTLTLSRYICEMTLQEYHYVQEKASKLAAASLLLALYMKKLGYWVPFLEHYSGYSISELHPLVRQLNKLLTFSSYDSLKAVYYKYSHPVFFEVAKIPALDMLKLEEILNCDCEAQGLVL
A3Y: 0.199
P10L: -0.133
K2P: 0.642
L7Q: 0.183
C4E: -0.0603
R5H: 0.15
K2R: 0.243
D12Y: 0.561
F8L: -0.323

Study 2 — method: universal PBM; form: double-stranded DNA, one strand shown; sample: in vitro; concentration: not given; direction: higher = stronger binding; quantity: E-score
Target: Sal-like protein 4, full length isoform B (SALL4, Homo sapiens, UniProt Q9UJQ4-2, residues 1-616)
Notes: 8-mer, flanks averaged, mean of replicates
Target sequence (chain): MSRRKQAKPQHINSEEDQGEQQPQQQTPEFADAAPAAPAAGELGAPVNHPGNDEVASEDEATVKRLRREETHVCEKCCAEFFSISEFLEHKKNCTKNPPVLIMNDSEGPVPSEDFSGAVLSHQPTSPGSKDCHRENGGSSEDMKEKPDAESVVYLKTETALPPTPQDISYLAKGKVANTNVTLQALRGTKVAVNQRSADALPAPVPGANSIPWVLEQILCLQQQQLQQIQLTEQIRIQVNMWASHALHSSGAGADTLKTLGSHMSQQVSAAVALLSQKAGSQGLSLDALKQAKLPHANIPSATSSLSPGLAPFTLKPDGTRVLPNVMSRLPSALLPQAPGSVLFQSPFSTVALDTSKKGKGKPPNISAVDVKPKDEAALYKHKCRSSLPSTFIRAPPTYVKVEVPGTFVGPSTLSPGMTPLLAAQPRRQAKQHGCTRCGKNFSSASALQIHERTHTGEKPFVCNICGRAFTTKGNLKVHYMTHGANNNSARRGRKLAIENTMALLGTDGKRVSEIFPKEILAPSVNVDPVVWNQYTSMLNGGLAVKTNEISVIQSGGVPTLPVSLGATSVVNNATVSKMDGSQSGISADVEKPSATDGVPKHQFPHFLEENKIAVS
ACGGTCGG: -0.228
CATGGAAA: 0.262
AACTCCGA: -0.152
CAGTTATA: 0.263
ACCGCCTA: -0.111
GAGAACGC: -0.0988
CTCATGAC: -0.13
ACCTCCCA: -0.194
AAGATTTG: 0.104
AGGTGAAT: -0.0172
CTCGACCA: -0.173

Study 3 — method: RNA Bind-n-Seq; form: RNA; sample: in vitro; concentration: 200 nM; notes: whole 134-nt RNA, ends assumed; with: 150 mM KCl; relative to: input library; direction: higher = stronger binding; quantity: log2 enrichment
Target: Fragile X messenger ribonucleoprotein 1, C-terminal low-complexity region (Fmr1, Mus musculus, UniProt P35922)
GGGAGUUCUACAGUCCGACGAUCGUCCUGUGCUACACAUCGUAUGUACCGAAUCGGGGUGGGGAAAAAAAGGGGUUUGGGGAAAGUAUUAUGUUACGCCGUUCGGAUCUGCACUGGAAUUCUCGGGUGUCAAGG: 0.572
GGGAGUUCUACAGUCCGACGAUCGCAGGAAGUAAAAACAAAUGGAAAUGCUUCGGAUAGCGGCAGGGGUGGGGGUUGCUAAGGAAAGGGUGGGAUGGGAGUGGGUAAAGAGUUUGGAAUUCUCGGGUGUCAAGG: 0.395
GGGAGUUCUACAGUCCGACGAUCACCAUGCAGGUGGGCAUCUUUGGGAAGUGGGGCAAGGGGGGGAUAGGGAGGGGGGUAACACUUUGGGAAAAAGUGGUCCCAGGUCGUUUCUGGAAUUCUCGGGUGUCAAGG: 0.953
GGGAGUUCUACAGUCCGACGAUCAAGUCCUGUGCUACACAUCGUAUGUACCGAAUCGGGGAGGGGAAAGGGGAAAGGGGAAAGUAUUAUGUUACGCCGUUCGGAUCUGCACUUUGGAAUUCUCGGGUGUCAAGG: 0.679
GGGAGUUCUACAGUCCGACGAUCAAGUCCUGUGCUACACAUCGUAUGUACCGAAUCGGAAAAAGGUUUGGUUUUUUUGGAAAGUAUUAUGUUACGCCGUUCGGAUCUGCACUUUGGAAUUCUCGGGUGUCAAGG: -1.03
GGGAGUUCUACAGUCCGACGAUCUCCUGUGCUACACAUCGUAUGUACCGAAUCAAAUUUUUAAACCCCCCCAAACCCCCAAAAAAGUAUUAUGUUACGCCGUUCGGAUCUGCAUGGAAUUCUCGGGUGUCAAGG: -0.0432
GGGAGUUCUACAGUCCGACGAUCGCAGGAAGUUAAAACAAAUGGAAAUGCUUCGGAUAGUGGCAGGGGUGGGGGUUGCUAAGGAAAGGGUGGGAUGGGAGUGGGUAAAGAGUUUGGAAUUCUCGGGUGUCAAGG: 0.429
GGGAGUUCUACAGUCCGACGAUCCCUGUGCUACACAUCGUAUGUACCGAAUCGGGCCCCCCGGGGCCCCCCGGCCCCCCGGGGAAAGUAUUAUGUUACGCCGUUCGGAUCUGCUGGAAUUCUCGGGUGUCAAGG: -0.611
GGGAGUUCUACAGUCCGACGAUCACCAUGCAGGUGGGCAUCUUUGGGAAGUGGGGCAAGGGGGGGAUAGGGAGGGGGGUAACACUUUGGGAACAGGUGGAAACAGGUCGUUUCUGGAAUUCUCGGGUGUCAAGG: 0.445
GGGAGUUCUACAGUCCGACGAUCGCAGGAAGUAAAAACAAAUCGAAAUGCUUCGGAUAGUGGCAGGGGUGGGGGUUGCUAAGGAAAGGGUGGGAUGGGAGUGGGUAAAGAGUUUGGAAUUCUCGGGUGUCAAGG: 0.0856
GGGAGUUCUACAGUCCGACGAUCCACAGACAACACGCACCCACACAGACACAGAGGGAAGGGGUUGGGAUGGGGACAAAAUGCACAGCAGGGCGGGGUAGGACCCCAGCCCCUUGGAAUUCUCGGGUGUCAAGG: 1.33
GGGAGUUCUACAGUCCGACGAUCGUCCUGUGCUACACAUCGUAUGUACCGAAUCGGUUUUUUGGUUUUUUGGUUUUUUGGGGAAAGUAUUAUGUUACGCCGUUCGGAUCUGCAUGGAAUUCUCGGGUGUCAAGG: -0.741
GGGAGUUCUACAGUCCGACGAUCCUCAAGUCCUGUGCUACACAUCGUAUGUACCGAAUCGGGCCGGGCCGGCCGGGGAAAGUAUUAUGUUACGCCGUUCGGAUCUGCACUUCCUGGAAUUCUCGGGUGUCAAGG: -0.0929
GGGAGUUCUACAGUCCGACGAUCUGGGAGGUGGAUUUUGUUUAUUUUUUUAGCUCAUUUCCAGGGGUGGGAAUUUUUUUUUAAUAUGUGUCAUGAAUAAAUUUGUUUUUGAAAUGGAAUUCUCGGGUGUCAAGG: 0.369

Other studies, line by line
PhoQ, residues 284 288 289 292 302 303 SLSVQF
fold induction (PhoP, residues 12 14 15 18 19 AQALL (Escherichia coli, UniProt P23836); Sort-seq, measured: YFP reporter; E. coli; PhoQ-PhoP variant library, with: 10 µM Mg2+; relative to: high Mg2+ state, higher = stronger signaling): 7.35
